Published values gathered from unrelated publications.
Each numbered part is a random draw from the data of one study; scales do not carry over between parts. Positions count from the first letter of the parent shown.

Study 1 — cell line: yeast with cyclin E2-Cln2 chimera; effect on: cell growth; mode: binder; method: competitive growth deep sequencing; molecule type: peptide; tested at: concentration not given; setting: peptide tiling library; direction: direction not given
| Molecule | growth enrichment score |
| --- | --- |
| ESSTVSEEDYFSSHRD | 1.14 |
| ARKRLELGNLGNPQ | -0.722 |
| DVSERGYVILPNDYFE | -0.109 |
| GLPDFVFQQQPVESEA | 0.0901 |
| EAAPPTQEAQGETEPT | 0.611 |
| CFRCLLFSFSGRSGVE | -0.178 |
| VEEEFFALRKRTPSAG | 0.337 |
| ALLRRLQDVANDRGSH | 0.945 |
| LRRKLFLDGNGSIS | 0.0945 |
| QYQVVDDIVSKLVFDF | 0.374 |
| RSLKLDGLLEEN | -0.179 |
| IQKKLRFEDTLEFVGF | -0.0426 |
| KPKPVKPVTFSTGIKM | 0.292 |
| DKYDEGLYRFNSLNDL | -0.0685 |
| KPHVSDEEEEEPPFYH | 0.359 |
| EPKTLFLGAGDFQF | 0.675 |
| RDLFDCDFGDLTPLDF | 0.594 |
| AKRSLGFLPQPVPL | 0.587 |

Study 2 — method: DHFR PCA, deep sequencing; medium: yeast; together with: (+)-ABA 58 µM; reference: wild-type fitted maximum; direction: higher = stronger binding
Target: ABI1, truncated, D143A, DHFR fusion (Arabidopsis thaliana)
Setting: methotrexate growth selection, single substitutions
Starting sequence: PYL1, truncated, DHFR fusion (Arabidopsis thaliana); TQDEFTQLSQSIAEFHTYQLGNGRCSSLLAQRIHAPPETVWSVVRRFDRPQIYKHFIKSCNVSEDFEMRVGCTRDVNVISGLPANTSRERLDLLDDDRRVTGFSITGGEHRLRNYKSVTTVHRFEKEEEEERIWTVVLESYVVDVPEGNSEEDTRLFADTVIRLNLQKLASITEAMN; partner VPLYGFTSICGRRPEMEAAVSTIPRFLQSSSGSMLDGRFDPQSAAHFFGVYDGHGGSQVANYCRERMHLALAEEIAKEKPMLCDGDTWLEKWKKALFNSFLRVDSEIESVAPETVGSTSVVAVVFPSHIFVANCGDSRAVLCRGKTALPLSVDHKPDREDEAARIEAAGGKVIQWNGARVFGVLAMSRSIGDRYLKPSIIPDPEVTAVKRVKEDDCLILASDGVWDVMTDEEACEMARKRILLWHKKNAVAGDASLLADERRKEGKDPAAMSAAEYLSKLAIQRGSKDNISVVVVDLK
| Variant | relative binding score [%] |
| --- | --- |
| T86Y | 75.3 |
| H16G | -7.49 |
| F47T | -8.58 |
| S59F | 58.1 |
| L8R | 40.3 |
| G107A | 71 |
| S26T | 87.1 |
| A30H | 90.2 |
| V136H | 33 |
| L29E | 8.7 |
| V40N | -12.1 |
| Q7R | 89.5 |
| V100S | 41.9 |
| R49Q | 85.6 |
| N61M | 82.7 |
| H16K | -31.9 |
| L164T | 91 |
| I52A | 88.6 |
| T106W | 79.9 |
| E64A | 87.8 |
| Y18C | 62.4 |
| R69P | 18.3 |
| A13V | 82.7 |
| L94I | 88.7 |
| V137E | -12.6 |

Study 3 — method: protein binding microarray; molecule type: double-stranded DNA, one strand shown; medium: in vitro; tested at: not given; reference: not given; direction: higher = stronger binding
Target: Histone acetyltransferase KAT6A, winged helix 2, GST fusion (KAT6A, Homo sapiens, UniProt Q92794, residues 85-181)
Setting: 8-mer, flanks averaged, mean of 2 arrays, mostly near background
Residues (chain): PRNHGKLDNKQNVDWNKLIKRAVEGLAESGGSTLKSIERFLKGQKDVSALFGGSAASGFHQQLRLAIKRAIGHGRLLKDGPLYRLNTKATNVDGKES
| Sequence | E-score |
| --- | --- |
| CCACGCTA | -0.135 |
| ATTGTTAA | -0.0671 |
| CACTGCTG | -0.00095 |
| CTCCACCA | -0.0507 |
| ATGCGAAA | 0.141 |
| AGAATCTA | -0.12 |
| CCTGAATA | 0.0336 |
| CATCACAA | 0.0852 |
| GCATTGTA | -0.0538 |
| GCAACGTA | -0.209 |
| AAGCGCGC | 0.174 |
| GGGAAGCA | 0.0431 |
| CCAGTGAC | 0.0747 |
| AGGGCTAC | -0.12 |
| GCATGGAA | 0.0153 |
| CCCCGTTA | -0.0574 |
| CGCGACCG | 0.317 |
| CCCAGCAG | 0.208 |
| CAACGGCG | 0.171 |
| CGTGCCGA | 0.0534 |
| ACCAGGTC | -0.123 |
| CACCCCTA | -0.287 |
| ACTTTACT | -0.222 |
| ACGCTAGT | -0.105 |
| AAAATCGT | -0.0974 |

Study 4 — method: universal PBM; molecule type: double-stranded DNA, one strand shown; medium: in vitro; tested at: not given; direction: higher = stronger binding
Target: Sal-like protein 4, full length isoform B (SALL4, Homo sapiens, UniProt Q9UJQ4-2, residues 1-616)
Setting: 8-mer, flanks averaged, mean of replicates
| Sequence | E-score |
| --- | --- |
| GTCCACAA | 0.0432 |
| ATTAAAAT | 0.391 |
| CGACTCTC | -0.148 |
| AAAACGGG | -0.0285 |
| TGCAATAA | 0.309 |
| ACAGCGGG | -0.177 |
| ACTACCAA | 0.0965 |
| CAGCGCAA | -0.186 |
| AACATTAA | 0.363 |
| GGACTCGA | -0.113 |
| CATTCACG | -0.0241 |
| GCCGTAGC | -0.175 |
| AGAGGAGG | -0.241 |
| CGCGTCAG | -0.233 |
| CCGTGTCG | -0.283 |
| ACGGTCAA | -0.0421 |
| ACCGTTAC | -0.0213 |
| AGCCGGGG | -0.407 |
| ATGTAGTA | 0.271 |
| AACCTTCG | 0.0325 |
| GACCGGGC | -0.357 |
| ATTTCCGA | 0.191 |
| CATACCGC | -0.0413 |
| TGGTAGAA | -0.0242 |
| AGCTCAAT | 0.0202 |

Study 5 — method: RNA Bind-n-Seq; molecule type: RNA; medium: in vitro; tested at: 365 nM; reference: no-protein control; direction: higher = stronger binding
Target: RNA binding protein fox-1 homolog 2, RRM domain, GST-SBP tag (RBFOX2, Homo sapiens, UniProt O43251-10, residues 100-194)
Setting: natural RNA segment, single round, ends assumed
| Sequence | RBNS enrichment (R) |
| --- | --- |
| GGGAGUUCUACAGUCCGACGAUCUGUGGAGUGGAAUGAAAUCAAUGCUGCCUGGGGCCAGACAGUGCUGCUGCUCCAUGCUUUGGCCAAUAAGAUGGGUCUGAAGUUUCAGAGGUACCGACUUGUUCCCUAUGUGGAAUUCUCGGGUGCCAA | 0.593 |
| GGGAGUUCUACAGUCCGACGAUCUUCAAUGGAUUCCAUUCCUGUAUUCCUUAUGGGAGGUUGUUUUUAAAAUAGACUACUGCGAUUGAAAUGAACUCAAUAUGUAGUUAAGUUAUAGUUUUCUUCAAUGUAUUUGGAAUUCUCGGGUGCCAA | 0.471 |
| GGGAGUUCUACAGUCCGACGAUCAUGCCUUUACAUAGAAGGGCUCUGAUUUGCACAAUUUGUUGAAAAAUCACAAACCCAUAGAAAAGUAAGUAGGCUAAGUUGGGGAGGCUCAAACCAUUAAGGGUUAAAAAUGGAAUUCUCGGGUGCCAA | 0.394 |
| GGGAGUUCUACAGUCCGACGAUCAUGCUUAAAUCCAAGUUGUUUCUCCAGCUGUCACCUCCCCCAGGAGAUCAGGAUUCCACUGACGUCCUGGGCAGCCAGUGAAUUUAAUUUUCCAUGAGAAACAACAGAGUUGGAAUUCUCGGGUGCCAA | 0.525 |
| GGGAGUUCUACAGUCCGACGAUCAAGCGAAUUAAAACACAACAAAAAACCCCACCCCACAACCUUCAGGACAGUCUAUCUUAAAUUUCAUAUGAGAACUCCUUCCUCCCUUUGAAGAUCUGUCCAUAUUCAGGUGGAAUUCUCGGGUGCCAA | 1.19 |
| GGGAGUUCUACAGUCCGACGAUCUCACAUUCUCUUGUCACCACCAAGAACUCCAAGUUUUUCGUUUUGUUUUGUUUUCAAAGUGCUUACAAUGCAUGUAGACAUUGUUCUUUGUGGUCUGACUCUAUGAUCGAUGGAAUUCUCGGGUGCCAA | 0.871 |
| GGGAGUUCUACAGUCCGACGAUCACACCAGGAGCUGCCACUGCAUGUCCCAACCAGACUGUGUCUGUCUGUGUCUGCAUGUAAGAGUGAGGGAGGGAAGGAAGGAACUACAAGAGAGUCGGAGAUGAUGCAGCUGGAAUUCUCGGGUGCCAA | 7.29 |
| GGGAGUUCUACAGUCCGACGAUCAGGGCAGCCAGGUGUGCGUGUCUUGAAAUUACUGACUUGAGUUCUUGUAUCACAACUAAUUUCAGCUGAGAGUUCAGCCUUGGGAGAAAGCACACCAUGGUGGGAGAGGUUGGAAUUCUCGGGUGCCAA | 0.758 |

For quick reference, copied from above (study 4):
| Sequence | E-score |
| --- | --- |
| AGAGGAGG | -0.241 |
| CGCGTCAG | -0.233 |
| CCGTGTCG | -0.283 |
| ACGGTCAA | -0.0421 |
| ACCGTTAC | -0.0213 |
| AGCCGGGG | -0.407 |
| ATGTAGTA | 0.271 |
| AACCTTCG | 0.0325 |
| GACCGGGC | -0.357 |
| ATTTCCGA | 0.191 |
| CATACCGC | -0.0413 |
| TGGTAGAA | -0.0242 |
